Results pooled from the literature.
Parts stem from different laboratories: compare values within a part only.

Block 1 — technique: protein-binding microarray; molecule type: double-stranded DNA, one strand shown; medium: in vitro; tested at: 2200 nM top; setting: 60-bp whole probe; with: salmon DNA 0.4 mg/ml; relative to: random background probes; direction: higher = stronger binding; shared flanks, not repeated: GCCTAGCAC … GTCTTGATTCGCTTGACGCTGCTG
Target: Interferon regulatory factor 7, full length, phosphomimetic (IRF7, Homo sapiens, UniProt Q92985, residues 1-503, S471D/S472D/S475D/S476D/S477D/S483D/S484D/S487D)
Residues (chain): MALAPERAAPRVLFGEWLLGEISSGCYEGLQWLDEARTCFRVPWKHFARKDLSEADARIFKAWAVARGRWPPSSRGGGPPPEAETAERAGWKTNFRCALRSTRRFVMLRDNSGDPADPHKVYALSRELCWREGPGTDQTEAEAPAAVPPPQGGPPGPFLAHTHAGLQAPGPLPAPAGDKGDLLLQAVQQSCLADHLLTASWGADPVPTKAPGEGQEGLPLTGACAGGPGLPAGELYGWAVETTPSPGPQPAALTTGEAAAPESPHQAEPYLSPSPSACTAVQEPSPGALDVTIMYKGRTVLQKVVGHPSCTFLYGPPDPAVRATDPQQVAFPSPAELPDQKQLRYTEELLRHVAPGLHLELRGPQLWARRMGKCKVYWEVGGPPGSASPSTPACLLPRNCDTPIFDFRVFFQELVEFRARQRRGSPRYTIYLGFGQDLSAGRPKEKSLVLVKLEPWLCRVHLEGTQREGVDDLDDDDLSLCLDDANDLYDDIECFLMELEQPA
Under “fitted relative affinity”, `TTAGGTATCGACAATCGGTTAGTGCTA` is recorded as 0.33 z-score.
Under “fitted relative affinity”, `TTAGGTTTCCTAATCCTTTAGTGCTAG` is recorded as 1.32 z-score.
For `TAAGGTTTCCTTATCCTTTAGTGCTAG`, “fitted relative affinity” read 1.63 z-score.
Under “fitted relative affinity”, `TCACCTATTTATATGAGACTGTGCTAG` is recorded as 1.37 z-score.
`GACGGCATCGGACTGGGGACGTGCTAG`: “fitted relative affinity” -0.905 z-score.
`GACGAACTGGGGACTGGAGGCGTGCTA`: “fitted relative affinity” -0.414 z-score.
For `TGGAGCCTAAGGTTTAGGCTCGTGCTA`, “fitted relative affinity” read -0.777 z-score.
Under “fitted relative affinity”, `GACGAACTGAGACTGGAGCCGTGCTAG` is recorded as -0.344 z-score.
`GACGGTATCGGGTTTCGGGATGTGCTA` — result for “fitted relative affinity”: 2.14 z-score.
`TTAGATAACGGGTTTCGATTAGTGCTA` — result for “fitted relative affinity”: 2.17 z-score.
`TGAGATTTCAGTCTCGATTAGTGCTAG`: “fitted relative affinity” 0.266 z-score.
Under “fitted relative affinity”, `GACGGTTTCGACTTTCGGGTCGTGCTA` is recorded as 11.6 z-score.
Under “fitted relative affinity”, `GACGGCCTCCTTTTCCTGACGTGCTAG` is recorded as 1.13 z-score.
For `CTAGGTTCCCTTTTCCTTTAGTGCTAG`, “fitted relative affinity” read 3.08 z-score.
`TCAATATTCTGCTTTGCACTGTGCTAG` — result for “fitted relative affinity”: 1.15 z-score.
`GTCGGTATCGGACTGGGGACGTGCTAG` — result for “fitted relative affinity”: 0.174 z-score.
`TTAGGTATCGCCTTTCGGTTAGTGCTA`: “fitted relative affinity” 2.81 z-score.
Under “fitted relative affinity”, `TCAACTTTGCTCTGTGCAACTGTGCTA` is recorded as 0.506 z-score.
Under “fitted relative affinity”, `TTACATATCAGTTTCGATTAGTGCTAG` is recorded as 6.71 z-score.

Block 2 — technique: universal PBM; molecule type: double-stranded DNA, one strand shown; medium: in vitro; tested at: 600 nM; direction: higher = stronger binding
Target: Sal-like protein 4, full length isoform A (SALL4, Homo sapiens, UniProt Q9UJQ4, residues 1-1053)
Sequence of UniProt Q9UJQ4 (whole entry, looked up): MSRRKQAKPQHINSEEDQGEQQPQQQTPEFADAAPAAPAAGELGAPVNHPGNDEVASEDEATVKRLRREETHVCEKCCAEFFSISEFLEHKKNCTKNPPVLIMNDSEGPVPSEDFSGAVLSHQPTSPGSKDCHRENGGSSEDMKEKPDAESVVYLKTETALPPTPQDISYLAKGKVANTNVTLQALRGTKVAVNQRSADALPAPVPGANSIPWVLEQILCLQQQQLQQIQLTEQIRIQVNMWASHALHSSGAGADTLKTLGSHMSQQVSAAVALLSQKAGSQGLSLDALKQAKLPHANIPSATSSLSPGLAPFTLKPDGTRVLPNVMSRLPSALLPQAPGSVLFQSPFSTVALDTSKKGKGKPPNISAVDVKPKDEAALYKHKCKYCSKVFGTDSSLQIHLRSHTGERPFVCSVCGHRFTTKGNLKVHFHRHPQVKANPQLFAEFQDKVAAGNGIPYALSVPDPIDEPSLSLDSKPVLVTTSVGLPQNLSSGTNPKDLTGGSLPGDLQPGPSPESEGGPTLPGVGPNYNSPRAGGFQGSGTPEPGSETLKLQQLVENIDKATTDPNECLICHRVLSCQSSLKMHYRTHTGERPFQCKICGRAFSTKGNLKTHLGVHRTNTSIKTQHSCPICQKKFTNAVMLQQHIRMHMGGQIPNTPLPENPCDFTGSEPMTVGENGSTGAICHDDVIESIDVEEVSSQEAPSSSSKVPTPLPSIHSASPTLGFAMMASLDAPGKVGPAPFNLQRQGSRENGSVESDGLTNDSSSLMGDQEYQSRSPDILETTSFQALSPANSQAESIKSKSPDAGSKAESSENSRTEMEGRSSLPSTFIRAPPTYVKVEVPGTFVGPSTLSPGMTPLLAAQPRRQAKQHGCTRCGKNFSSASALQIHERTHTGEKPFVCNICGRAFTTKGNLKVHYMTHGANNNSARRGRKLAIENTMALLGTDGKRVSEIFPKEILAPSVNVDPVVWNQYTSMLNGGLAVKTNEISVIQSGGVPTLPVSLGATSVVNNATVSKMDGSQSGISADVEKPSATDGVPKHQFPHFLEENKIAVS
Setting: 8-mer, flanks averaged, mean of replicates
`ATTAATGC` gave an E-score of 0.288.
With `CATTACCC` the E-score was -0.0841.
`CCTACCAC` gave an E-score of -0.195.
The E-score of `CTTCGAAC` is reported as -0.146.
`AACCGTCG` gave an E-score of -0.171.
The E-score of `ACGGACTG` is reported as -0.11.
`GAGCGAGC` gave an E-score of -0.17.
The E-score of `CCTGGGGA` is reported as -0.352.
The E-score of `ATGTTAAC` is reported as 0.261.
`ACCAGACA` has an E-score of -0.0212.
`CCTCCCGA` gave an E-score of -0.218.
`CACGTCGC` has an E-score of -0.236.
`CAGCTCTC` gave an E-score of -0.203.
With `AAAAATCA` the E-score was 0.303.
The E-score of `AAAGTTTG` is reported as 0.191.
For `TGTGCTAA`, the E-score was 0.0526.
`AACTCTAA` gave an E-score of 0.19.
`CGTGGTCC` has an E-score of -0.31.
`AGCCCTGA` gave an E-score of -0.164.
The E-score of `ACCGTGTA` is reported as 0.0674.
With `GAACTCTA` the E-score was 0.0136.
`ATGCCTTA` has an E-score of 0.062.
`ACTTGTGC` has an E-score of -0.022.
With `CAGAATCC` the E-score was -0.214.

Block 3 — technique: RNA Bind-n-Seq; molecule type: RNA; medium: in vitro; tested at: 365 nM; relative to: no-protein control; direction: higher = stronger binding
Target: RNA binding protein fox-1 homolog 2, RRM domain, GST-SBP tag (RBFOX2, Homo sapiens, UniProt O43251-10, residues 100-194)
Setting: natural RNA segment, single round, ends assumed
Shared flanks, not repeated: GGGAGUUCUACAGUCCGACGAUC … UGGAAUUCUCGGGUGCCAA
Residues (chain): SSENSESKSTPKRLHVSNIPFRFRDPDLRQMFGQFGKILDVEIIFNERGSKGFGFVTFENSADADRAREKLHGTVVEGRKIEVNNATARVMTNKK
For `CCAUGCCCGGCUAAUUUUUUUGUAUUUUUAGUAGAGACCAGGCUUCGCCAUGUUGGCCAGGCUGGUCUCGAACCCCUGAGCUCAGGUGAUCCACCUGCCUCGGCCUCCCA`, “RBNS enrichment (R)” read 0.34.
Under “RBNS enrichment (R)”, `AAGAUCCUUCUCGUAUUUCAUUUGGAAAGAUGAGCAAGAGGUCUGCUUCCUUCAUUUUACUUCCCCUUCUGUUUUUGAAAGGCAGUUUCGCCAAGCUUAAUGCAAGAAUA` is recorded as 0.305.
`UUCUGACCUAAGUGGCAGGGCCCAGAAAUCCUGAAAACCUCCCGCUGCCUUUUGUGAUACUUCCUGUGCUCCCUCAGAGAGAAACGGAGUGACCUUUUGUCCUUUACCUG` — result for “RBNS enrichment (R)”: 0.894.
Under “RBNS enrichment (R)”, `AGAAAGAGAAAGAGAGCGGCUGCUGUAGGGACAGCUCUCUGCCUCUCCUCUCCUGGCUCUACCAGUAAGACAAGAUUUAUUUAAUUUUAUUAUUUAAUCUGCACUGAUUU` is recorded as 0.516.
Under “RBNS enrichment (R)”, `UAAUACAUCAUGGGAUAUAUAUAAAGCAACUUAAUUCUUGUGGUGUAGUCUUAAUAGUUUUGAAUGUUGACUGAAUGUCUAUAAAAUUGUGAGUUUGUCUUUGUUACAUU` is recorded as 2.17.
Under “RBNS enrichment (R)”, `GGUGGUUAAACGGGUAACAGAAAUACUGUAUUGUGAGAAAUGACACAACAAAAGCCGGCAGGCAUCUUUAAGGGCUAUGCCUAGGGAGACUACUAACAUGGAGAGAAUGC` is recorded as 0.885.
For `GGGGUUUCUUGUCUGCAGAGUGUAGAGACUCAUCAGUGUACAGAUGAGACCUGCUCAUCGUGCGACUGUAACCCUUCAGUCCUAGCUGCUUUUGAAGAGGUUUCCAUUUU`, “RBNS enrichment (R)” read 0.429.
Under “RBNS enrichment (R)”, `CAAUCUCUGUAUUAUAGCUAUUUGUCUAACAUUACCCCACAUGUAAUAAAUAAAACAAUAUGAGCAUAAUUGCCCCAUAAAGAACUCAUGUCCUGAAUUAAUAAGUCUUU` is recorded as 0.458.

Block 4 — technique: protein binding microarray; molecule type: double-stranded DNA, one strand shown; medium: in vitro; tested at: not given; relative to: not given; direction: higher = stronger binding
Target: Histone acetyltransferase KAT6A, winged helix 1, GST fusion (KAT6A, Homo sapiens, UniProt Q92794, residues 1-85)
Setting: 8-mer, flanks averaged, mean of 2 arrays, mostly near background
Target sequence (chain): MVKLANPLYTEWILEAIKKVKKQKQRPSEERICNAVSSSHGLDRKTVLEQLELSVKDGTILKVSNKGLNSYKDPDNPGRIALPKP
For `GCTTTCAA`, the E-score was -0.0109.
For `AGGGGTCC`, the E-score was 0.0475.
For `GCTATAGA`, the E-score was 0.0173.
The E-score of `CATGATGA` is reported as -0.193.
`CGCAGCGC` gave an E-score of 0.403.
With `TTGATCAA` the E-score was 0.0381.
The E-score of `GCCAAGGA` is reported as -0.219.
`CTGAGACC` gave an E-score of -0.0411.
The E-score of `CACTCATA` is reported as -0.146.
`AACGATTA` gave an E-score of -0.132.
`ATACAGTC` gave an E-score of -0.147.
`GCAAAGCC` has an E-score of 0.15.
The E-score of `ATGGAAAC` is reported as -0.122.
The E-score of `CTCAGATC` is reported as -0.158.
The E-score of `GAGCCTAA` is reported as -0.229.
For `ACCCGTTG`, the E-score was 0.283.
The E-score of `ATCTTCCC` is reported as -0.118.
With `CCCCCACC` the E-score was -0.0694.
With `ACGGTCCC` the E-score was 0.29.
`CCCAGTTA` gave an E-score of -0.144.
For `GGGCTATA`, the E-score was -0.0671.
With `AAACACTA` the E-score was -0.057.
The E-score of `ATTAGATC` is reported as -0.00886.

Block 5 — technique: protein-binding microarray; molecule type: double-stranded DNA, one strand shown; medium: in vitro; tested at: not given; direction: higher = stronger binding
Target: Hepatocyte nuclear factor 3-beta, forkhead domain (FOXA2, Homo sapiens, UniProt Q9Y261, residues 142-269)
Setting: k-mer, scored over probes, only values ≥0.25
Construct (chain): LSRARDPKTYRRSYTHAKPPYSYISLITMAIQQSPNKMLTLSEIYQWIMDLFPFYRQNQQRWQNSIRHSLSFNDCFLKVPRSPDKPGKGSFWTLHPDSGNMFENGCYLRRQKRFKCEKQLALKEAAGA
For `ATATGTTC`, the E-score was 0.28.
The E-score of `GTATATTA` is reported as 0.406.
`AAATAAGT` gave an E-score of 0.265.
The E-score of `CTGTATTA` is reported as 0.275.
With `ACAATGCT` the E-score was 0.27.
With `AACATTAC` the E-score was 0.31.
The E-score of `AGTATAAC` is reported as 0.278.
The E-score of `CCACTATA` is reported as 0.26.
For `AAATAATG`, the E-score was 0.265.
The E-score of `ATAACACA` is reported as 0.409.
For `TACATAGA`, the E-score was 0.272.
For `TACATAAA`, the E-score was 0.332.
`ATGAGTAA` has an E-score of 0.257.
For `ACTAGTAA`, the E-score was 0.255.
With `ACGTTATA` the E-score was 0.31.
For `AAACAGTG`, the E-score was 0.26.
`CAAATAAA` has an E-score of 0.255.
For `ATGATTCC`, the E-score was 0.258.
`ATGCACAT` gave an E-score of 0.277.
